Assay results collected from several papers.
± marks the error that the study gave.

CCC[C@H](N[C@@H](C)C(=O)N1[C@H](C(=O)O)C[C@@H]2CCCC[C@@H]21)C(=O)OCC
AUC(0-inf) (healthy Chinese volunteers, whole blood; oral, 4 mg, fasting, with: indapamide 1.25 mg): 34.5 ± 8.6 ng·h/mL

CCOc1ccc(Cc2cc([C@@H]3S[C@H](CO)[C@@H](O)[C@H](O)[C@H]3O)c(OC)cc2C)cc1
AUC(0-inf) (Japanese type 2 diabetes patients, plasma; oral, 5 mg single dose, eGFR below 30 mL/min/1.73 m^2): 2420 ± 657 ng·h/mL

CC(C)(Sc1ccncc1-c1ccc(C#N)c2ccccc12)C(=O)O
AUC(0-inf) (healthy Japanese male subjects, plasma; oral, 10 mg single dose, day 6, fed, geometric mean): 215 ng·h/mL

COc1cccc(N2CCN(C3=Nc4c(F)cccc4[C@H](CC(=O)O)N3c3cc(C(F)(F)F)ccc3OC)CC2)c1
AUC(0-inf) (UHPLC-MS/MS; healthy women, plasma; intravenous infusion, 120 mg single dose, 30 min infusion, HPβCD formulation): 13600 ± 3820 ng·h/mL

Cc1nc2cccc(N)c2c(=O)n1C1CCC(=O)NC1=O (stereo not shown)
AUC(0-inf) (healthy adults, plasma; oral, 3 mg, fasted geometric mean alone): 718 ng·h/mL

O=C(NC[C@H](O)CO)c1ccncc1Nc1ccc(I)cc1F
AUC(0-inf) (patients, plasma; oral, 45 mg single dose, day 8, median, alone): 1340 ng·h/mL

CCN1CCN(Cc2ccc(Nc3ncc(F)c(-c4cc(F)c5nc(C)n(C(C)C)c5c4)n3)nc2)CC1
AUC(0-inf) (population PK model; patients, plasma; oral, 200 mg single dose): 4420 ng·h/mL

Oc1ccc2c3c(cnc2c1)-c1ccc(C(F)(F)F)cc1O[C@@H]3c1ccc(OCCN2CC(CF)C2)cc1
AUC(0-inf) (healthy fasted women, plasma; oral tablets, 400 mg): 1960 ng·h/mL

NC(=O)c1cnc2[nH]ccc2c1N[C@@H]1[C@@H]2CC3C[C@H]1C[C@@](O)(C3)C2
AUC(0-inf) (Japanese, normal hepatic function, plasma; oral, 150 mg single dose, fasting, mean): 1150 ng·h/mL

CN1C(=O)[C@@H](NC(=O)c2nnc(Cc3ccccc3)[nH]2)COc2ccccc21
AUC(0-inf) (healthy men, plasma; oral, 60 mg once daily, day 14, geometric mean): 2600 ng·h/mL

COc1cc(OC)c(/C=C/S(=O)(=O)Cc2ccc(OC)c(NCC(=O)O)c2)c(OC)c1
AUC(0-inf) (cancer patients, phase I, plasma; oral, 280 mg twice daily, day 21 cycle 1): 2610 ± 1230 ng·h/mL

NC(=O)c1cnc2[nH]ccc2c1N[C@@H]1[C@@H]2CC3C[C@H]1C[C@@](O)(C3)C2
AUC(0-inf) (healthy Caucasian men, plasma; oral, 200 mg, single dose fasted): 1520 ng·h/mL

Nc1cccc2c1C(=O)N(C1CCC(=O)NC1=O)C2=O (stereo not shown)
AUC(0-inf) (healthy male nonsmokers, plasma; oral, 4 mg, single dose, geometric mean): 684 ng·h/mL

C[C@H]1Oc2cc(cnc2N)-c2c(nn(C)c2C#N)CN(C)C(=O)c2ccc(F)cc21
AUC(0-inf) (healthy adults; oral tablet, 100 mg single dose, high-fat meal, adjusted geometric mean): 8870 ng·h/mL

CCC[C@H](N[C@@H](C)C(=O)N1[C@H](C(=O)O)C[C@@H]2CCCC[C@@H]21)C(=O)O
AUC(0-inf) (healthy Chinese volunteers, plasma; oral, 4 mg perindopril tert-butylamine, fasting, with: indapamide 1.25 mg): 125 ± 34.8 ng·h/mL

CNC(=O)c1ccc(-c2cnc3ncc(Cc4ccc5ncccc5c4)n3n2)cc1F
AUC(0-inf) (mild hepatic impairment; oral, 200 mg, geometric mean): 4790 ng·h/mL

CC[C@H](C)[C@H](NC(=O)[C@H](CCC(=O)O)NC(=O)[C@H](CO)NC(=O)[C@@H](NC(=O)[C@@H](N)CO)C(C)C)C(=O)N[C@@H](CCC(N)=O)C(=O)N[C@@H](CC(C)C)C(=O)N[C@@H](CCSC)C(=O)N[C@@H](Cc1cnc[nH]1)C(=O)N[C@@H](CC(N)=O)C(=O)N[C@@H](CC(C)C)C(=O)NCC(=O)N[C@@H](CCCCN)C(=O)N[C@@H](Cc1cnc[nH]1)C(=O)N[C@@H](CC(C)C)C(=O)N[C@@H](CC(N)=O)C(=O)N[C@@H](CO)C(=O)N[C@@H](CCSC)C(=O)N[C@@H](CCC(=O)O)C(=O)N[C@@H](CCCN=C(N)N)C(=O)N[C@H](C(=O)N[C@@H](CCC(=O)O)C(=O)N[C@@H](Cc1c[nH]c2ccccc12)C(=O)N[C@@H](CC(C)C)C(=O)N[C@@H](CCCN=C(N)N)C(=O)N[C@@H](CCCCN)C(=O)N[C@@H](CCCCN)C(=O)N[C@@H](CC(C)C)C(=O)N[C@@H](CCC(N)=O)C(=O)N[C@@H](CC(=O)O)C(=O)N[C@H](C(=O)N[C@@H](Cc1cnc[nH]1)C(=O)N[C@@H](CC(N)=O)C(=O)N[C@@H](Cc1ccccc1)C(=O)O)C(C)C)C(C)C
AUC(0-inf) (postmenopausal women, osteoporosis, plasma; subcutaneous, 56.5 µg once weekly): 0.925 to 1.23 ng·h/mL

CC(C)(Sc1ccncc1-c1ccc(C#N)c2ccccc12)C(=O)O
AUC(0-inf) (male, plasma; oral, 15 mg, mild renal impairment, fasted): 201 ng·h/mL

CC(C)=CCC[C@](C)(O[C@@H]1O[C@H](CO)[C@@H](O)[C@H](O)[C@H]1O)[C@H]1CC[C@]2(C)[C@@H]1[C@H](O)C[C@@H]1[C@@]3(C)CC[C@H](O[C@@H]4O[C@H](CO)[C@@H](O)[C@H](O)[C@H]4O[C@@H]4O[C@H](CO)[C@@H](O)[C@H](O)[C@H]4O)C(C)(C)[C@@H]3CC[C@]12C
AUC(0-inf) (LC-MS/MS; healthy female volunteers, serum; oral, 3 g fermented red ginseng): 180 ± 88.1 ng·h/mL

O=C(C1CCCCC1)N1CC(=O)N2CCc3ccccc3[C@@H]2C1
AUC(0-inf) (healthy men, plasma; oral, 40 mg/kg racemic praziquantel, geometric mean, with: ritonavir 100 mg/day for 14 days): 1060 ng·h/mL

COc1ccc2c3c1O[C@H]1C[C@@H](OC(=O)c4ccccc4)C=C[C@@]31CCN(C)C2
AUC(0-inf) (healthy elderly men, plasma; intranasal, 33 mg, single dose): 125 ng·h/mL

CCOc1cc([C@@H](CS(C)(=O)=O)N2C(=O)c3cccc(NC(C)=O)c3C2=O)ccc1O[C@@H]1O[C@H](C(=O)O)[C@@H](O)[C@H](O)[C@H]1O
AUC(0-inf) (mild renal impairment, plasma; oral, 30 mg apremilast single, geometric mean): 5420 ng·h/mL

CC(C)NCCCn1c(Sc2cc3c(cc2I)OCO3)nc2c(N)ncnc21
AUC(0-inf) (patients, plasma; intravenous, ≥266 mg/m2): > 51.9 µM·h

CC(C)=CCC[C@](C)(O[C@@H]1O[C@H](CO)[C@@H](O)[C@H](O)[C@H]1O)[C@H]1CC[C@]2(C)[C@@H]1[C@H](O)C[C@@H]1[C@@]3(C)CC[C@H](O[C@@H]4O[C@H](CO)[C@@H](O)[C@H](O)[C@H]4O)C(C)(C)[C@@H]3CC[C@]12C
AUC(0-inf) (LC-MS/MS; healthy male volunteers, serum; oral, 3 g red ginseng): 3.08 ± 2.24 ng·h/mL

Cc1nc(-c2ccc(OCC(C)C)c(C#N)c2)sc1C(=O)O
AUC(0-inf) (healthy Chinese adult volunteers, plasma; oral, 80 mg single dose, fasting): 15500 ± 3230 ng·h/mL

A few entries again:
CC(C)NCCCn1c(Sc2cc3c(cc2I)OCO3)nc2c(N)ncnc21
AUC(0-inf) (patients, plasma; intravenous, ≥266 mg/m2): > 51.9 µM·h

CC(C)=CCC[C@](C)(O[C@@H]1O[C@H](CO)[C@@H](O)[C@H](O)[C@H]1O)[C@H]1CC[C@]2(C)[C@@H]1[C@H](O)C[C@@H]1[C@@]3(C)CC[C@H](O[C@@H]4O[C@H](CO)[C@@H](O)[C@H](O)[C@H]4O)C(C)(C)[C@@H]3CC[C@]12C
AUC(0-inf) (LC-MS/MS; healthy male volunteers, serum; oral, 3 g red ginseng): 3.08 ± 2.24 ng·h/mL

Cc1nc(-c2ccc(OCC(C)C)c(C#N)c2)sc1C(=O)O
AUC(0-inf) (healthy Chinese adult volunteers, plasma; oral, 80 mg single dose, fasting): 15500 ± 3230 ng·h/mL
